# Published values gathered from unrelated publications.
# Numbered parts are unrelated; each lists some results of a single study.

# Block 1 — technique: RNA Bind-n-Seq; molecule type: RNA; sample: in vitro; concentration: 365 nM; baseline: no-protein control; direction: higher = stronger binding
# Target: RNA binding protein fox-1 homolog 2, RRM domain, GST-SBP tag (RBFOX2, Homo sapiens, UniProt O43251-10, residues 100-194)
# Notes: natural RNA segment, single round, ends assumed
# Shared flanks, not repeated: GGGAGUUCUACAGUCCGACGAUC … UGGAAUUCUCGGGUGCCAA
# Target sequence (chain): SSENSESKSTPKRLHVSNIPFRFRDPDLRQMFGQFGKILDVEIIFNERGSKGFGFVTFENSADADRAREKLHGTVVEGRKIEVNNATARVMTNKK
Sequence,RBNS enrichment (R)
ACCUUCUUAUUUAUGUAACUGGCUUUCAUUUAGAUUGUAAGUUAUGGACAUGAUUUGAGAUGUAGAAGCCAUUUUUUAUUAAAUAAAAUGCUUAUUUUAGGCUCCGUCCC,0.404
UGAGUGUGAGACACGUGCUUUGAACUGCUUUUCUAUUCAUGGAGCACUCCAUAGUCUCAAACUGUCCCCCUUAUGACCAACAGCACAUUUGUGAAGAGGUUCGCAGGGAU,0.441
UGUUCUUUGUCAUAGGGGUGAAAAACUAACUUCAAGUGUCCCUUGUUUGAAAUAAACUUAGCAGAGUACUUUCUAUCUUAUUUGUUUGUUCACUGUGUGUUUGACUGUAU,0.485
UCCAAAUUUAUAUUUCGGGGAAAUACCAUGAGAUAAUUAUAGCAUACUGGGCAUGUGUCCACACACGGAUUGGUUUCACUGCUUUAUAAAUAAAAGGAACAACUCUGGGU,0.83
ACUACGCACUUUAGAUAAGCCUCUUUUUAGUUCUUUCUGUUUCUCAAUAAUGGGCCAAAAAUACACCAUAGAGUUAAAGGUGCUGUCUACCAAGUAGCACACCAGUCAUG,0.318
ACUGAAGCCCUGCCACUGUUGCUAGUCAGGGGCUUGGUUCUCCCACUUACACUGUUGACAUCUAUUUUCUGAAGUGUGUUUAAAUUAUUCAGUGCUAAUCAUUGUUUUUU,0.662
CAAAACCCUGAAGCCAUUGGAGAGCUGUCUUCCUGUGUACCUCUAGAAUCCCAGCAGCAGAGAACCAUCAAGGCGGGAGGGCCUGCAGUGAUUCAGCAGGCCCUUCCCAU,0.384
UUUUGUCUACGGCCUGGGAAGAUGUUCUCCAGCCCCUGAGCCUAUUGGUUGGAUAGAGAGAGACUGUGGUGGAAAUGAGGGUCUUGCUGGGAGGGGUCCAUGACUCCGGG,0.646

# Block 2 — technique: protein-binding microarray; molecule type: double-stranded DNA, one strand shown; sample: in vitro; concentration: 0.8 µM; notes: whole 60-bp probe, no competitor; direction: higher = stronger binding; shared flanks, not repeated: … GTCTTGATTCGCTTGACGCTGCTG
# Target: Centromere-binding protein 1, full length, N-terminal tag (CBF1, Saccharomyces cerevisiae, UniProt P17106, residues 1-351)
# Chain of UniProt P17106 (whole entry, looked up): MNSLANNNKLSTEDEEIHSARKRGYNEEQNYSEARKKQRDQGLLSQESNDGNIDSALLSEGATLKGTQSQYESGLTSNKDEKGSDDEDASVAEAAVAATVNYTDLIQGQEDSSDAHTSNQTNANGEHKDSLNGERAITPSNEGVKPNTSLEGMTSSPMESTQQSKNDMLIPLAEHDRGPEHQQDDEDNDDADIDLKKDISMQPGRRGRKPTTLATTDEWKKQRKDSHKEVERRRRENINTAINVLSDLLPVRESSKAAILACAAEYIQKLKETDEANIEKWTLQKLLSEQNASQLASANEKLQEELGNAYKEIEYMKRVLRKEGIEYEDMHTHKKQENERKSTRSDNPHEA
Sequence,fluorescence intensity [a.u.]
GAAAATGTTTTGCATCACATGACCATGTTCGAGTAG,8960
CTATTTGTAAAAAGTGGCATCATGACCAATAATTTC,923
CTACTTCCCGCAGCTGACATCACAGGGGCGGCCTTC,715
CTATGAAATTTCTGTCACGATTATGTGCGGCGCTTC,746
GAACTTTTTCAAATATACGTGGGGCTCATGGCTTAG,559
GAAGATTGCATACATGATGTTATCGAGGCGTATTAG,532
GAACAGCCCTTTCATCACCTTCCTTACAGGGGTTAG,518
CTACAATATACATCCTACGTGCACAACGAACAATTC,552
GAATTTAAGTTGTTTCATATGATGTACTTTTCTTAG,514
CTAAAACGAATAACGGTGGTGATCCCGCGGCTTTTC,500
GAAAAATTTTTATACAACATGACTTTTTCAGTTTAG,567
GAACAACTGGCTGAACACGTGCCCCTCTATCTGTAG,13300
GAAAAGAATCTCTTGCACGTGACGGTTTACTAATAG,12500
CTAATCTCTAAGTACACGTGCATTTGGACCTATTTC,4780

# Block 3 — technique: aptamer microarray, sandwich; molecule type: DNA with 2'F-ANA; sample: in vitro; concentration: 200 nM; with: Cy3 exosite-II aptamer, 400 nM; direction: higher = stronger binding; sequence: GGTTGGTGTGGTTGG
# Target: Prothrombin, mature alpha-thrombin (F2, Homo sapiens, UniProt P00734)
# Notes: whole 15-mer aptamer, many near background
Modification,mean fluorescence intensity [a.u.]
2'F-ANA at 1 3 5 6 7 8 10 11 12,58.2
2'F-ANA at 1 2 4 10 14,43.1
2'F-ANA at 4 5 6 7 15,62.7
2'F-ANA at 1 7 12 14 15,78.8
2'F-ANA at 1 2 3 4 7 8 10 11 12 15,73.6
2'F-ANA at 1 2 3 6 9 14,63.5
2'F-ANA at 2 4 5 7 8 9 10 11 12 14 15,47.4
2'F-ANA at 2 4 6 9 10 11 13,67.3
2'F-ANA at 9 12 13,767
2'F-ANA at 1 3 4 5 6 7 8 11 13,56.4
2'F-ANA at 1 5 6 12 13 14 15,49
2'F-ANA at 1 2 3 5 6 8 10 12 14 15,52.3
2'F-ANA at 2 5 6 7 9 10 13 14 15,46.9
2'F-ANA at 1 6 7 9 10 11 13 14 15,50.2
2'F-ANA at 1 2 3 4 5 6 10 11 12 14 15,49.4
2'F-ANA at 1,224
2'F-ANA at 2 5 6 8 10 11,130
2'F-ANA at 5 8 11 12 14,47.1
2'F-ANA at 3 4 5 12 14 15,56
2'F-ANA at 1 2 7 8 9 10 12 13 15,70.4
2'F-ANA at 1 2 3 4 6 9 11 14,55
2'F-ANA at 2 3 5 6 9 10 13 15,48.7
2'F-ANA at 1 4 5 7 8 10 11 13,51.1
2'F-ANA at 2 3 5 6 7 8 9 10 11 12 14 15,55.9

# Block 4 — technique: universal PBM; molecule type: double-stranded DNA, one strand shown; sample: in vitro; concentration: not given; direction: higher = stronger binding
# Target: Sal-like protein 4, full length isoform B (SALL4, Homo sapiens, UniProt Q9UJQ4-2, residues 1-616)
# Notes: 8-mer, flanks averaged, mean of replicates
Sequence,E-score
ACTTAAGG,0.0447
CACACAAC,0.105
CTAGGCAG,-0.197
CTTCTACC,0.0085
GACGCAGA,-0.224
CCATAACC,0.249
CGTGCGTA,-0.0843
TCAGGTCA,-0.0693
AACCCGTA,-0.0273
CCTCCTAC,-0.249
TACTCCTA,0.117
AGCGGAAC,-0.243
CGCGCTGA,-0.379
CACGCAAC,-0.116
ATAGCCGG,-0.107
ATGTTGGG,-0.0769
AGAGAGCA,-0.18
AGATTTAT,0.279
ACTTTACA,0.109
CGTGCGGA,-0.198
AACTTACT,0.0236
ATGAGCCA,0.0132
CCGAAAAA,0.162
CCCCACAA,-0.106
CCTGACTA,0.0794

# Some of these lines once more (block 1):
Sequence,RBNS enrichment (R)
ACCUUCUUAUUUAUGUAACUGGCUUUCAUUUAGAUUGUAAGUUAUGGACAUGAUUUGAGAUGUAGAAGCCAUUUUUUAUUAAAUAAAAUGCUUAUUUUAGGCUCCGUCCC,0.404
UGAGUGUGAGACACGUGCUUUGAACUGCUUUUCUAUUCAUGGAGCACUCCAUAGUCUCAAACUGUCCCCCUUAUGACCAACAGCACAUUUGUGAAGAGGUUCGCAGGGAU,0.441
UGUUCUUUGUCAUAGGGGUGAAAAACUAACUUCAAGUGUCCCUUGUUUGAAAUAAACUUAGCAGAGUACUUUCUAUCUUAUUUGUUUGUUCACUGUGUGUUUGACUGUAU,0.485
UCCAAAUUUAUAUUUCGGGGAAAUACCAUGAGAUAAUUAUAGCAUACUGGGCAUGUGUCCACACACGGAUUGGUUUCACUGCUUUAUAAAUAAAAGGAACAACUCUGGGU,0.83
